Measured values from different studies.
± gives the spread as reported.
ABO G235S/G268A/L266M/R176G: Histo-blood group ABO system transferase (ABO, Homo sapiens, UniProt P16442, G235S/G268A/L266M/R176G)
Chain of UniProt P16442 (whole entry, unmodified, looked up): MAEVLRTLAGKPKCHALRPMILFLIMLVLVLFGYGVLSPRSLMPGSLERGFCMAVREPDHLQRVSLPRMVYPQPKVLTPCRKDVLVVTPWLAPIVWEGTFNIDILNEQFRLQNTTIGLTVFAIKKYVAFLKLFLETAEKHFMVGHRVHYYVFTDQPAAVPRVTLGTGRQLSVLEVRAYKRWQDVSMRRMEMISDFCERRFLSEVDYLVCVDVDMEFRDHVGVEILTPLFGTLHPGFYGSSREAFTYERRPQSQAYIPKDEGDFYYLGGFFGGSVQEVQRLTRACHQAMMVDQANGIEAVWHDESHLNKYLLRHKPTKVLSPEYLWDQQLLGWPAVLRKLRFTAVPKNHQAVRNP
SLC10A2: Ileal sodium/bile acid cotransporter (SLC10A2, Homo sapiens, UniProt Q12908)
Chain of UniProt Q12908 (whole entry, looked up): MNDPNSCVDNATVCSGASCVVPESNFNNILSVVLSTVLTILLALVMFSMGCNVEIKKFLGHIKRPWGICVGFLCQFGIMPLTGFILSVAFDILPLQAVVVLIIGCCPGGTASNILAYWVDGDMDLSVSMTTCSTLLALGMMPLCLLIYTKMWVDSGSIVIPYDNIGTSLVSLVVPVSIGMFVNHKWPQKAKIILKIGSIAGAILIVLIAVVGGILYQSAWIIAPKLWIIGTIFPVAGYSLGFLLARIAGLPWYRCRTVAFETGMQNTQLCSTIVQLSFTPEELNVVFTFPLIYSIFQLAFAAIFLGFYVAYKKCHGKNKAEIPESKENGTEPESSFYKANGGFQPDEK
CHRM5: Muscarinic acetylcholine receptor M5 (CHRM5, Homo sapiens, UniProt P08912)
Chain of UniProt P08912 (whole entry, looked up): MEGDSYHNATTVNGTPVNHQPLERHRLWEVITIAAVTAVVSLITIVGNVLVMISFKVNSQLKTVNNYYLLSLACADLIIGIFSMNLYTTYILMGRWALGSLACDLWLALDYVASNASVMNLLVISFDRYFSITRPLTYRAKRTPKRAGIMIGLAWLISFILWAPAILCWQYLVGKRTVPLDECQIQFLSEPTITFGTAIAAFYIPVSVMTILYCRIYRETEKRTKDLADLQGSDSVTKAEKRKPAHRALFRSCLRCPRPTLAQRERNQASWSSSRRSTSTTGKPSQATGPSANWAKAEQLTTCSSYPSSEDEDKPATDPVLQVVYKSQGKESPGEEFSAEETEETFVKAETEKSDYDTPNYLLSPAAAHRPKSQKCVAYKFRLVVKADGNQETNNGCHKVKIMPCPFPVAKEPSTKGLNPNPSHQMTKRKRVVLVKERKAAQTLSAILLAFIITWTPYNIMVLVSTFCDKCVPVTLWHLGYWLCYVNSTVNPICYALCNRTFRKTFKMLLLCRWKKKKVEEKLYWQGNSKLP
T1: DNA aptamer; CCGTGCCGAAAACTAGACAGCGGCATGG
Chain of UniProt Q00987 (whole entry, looked up): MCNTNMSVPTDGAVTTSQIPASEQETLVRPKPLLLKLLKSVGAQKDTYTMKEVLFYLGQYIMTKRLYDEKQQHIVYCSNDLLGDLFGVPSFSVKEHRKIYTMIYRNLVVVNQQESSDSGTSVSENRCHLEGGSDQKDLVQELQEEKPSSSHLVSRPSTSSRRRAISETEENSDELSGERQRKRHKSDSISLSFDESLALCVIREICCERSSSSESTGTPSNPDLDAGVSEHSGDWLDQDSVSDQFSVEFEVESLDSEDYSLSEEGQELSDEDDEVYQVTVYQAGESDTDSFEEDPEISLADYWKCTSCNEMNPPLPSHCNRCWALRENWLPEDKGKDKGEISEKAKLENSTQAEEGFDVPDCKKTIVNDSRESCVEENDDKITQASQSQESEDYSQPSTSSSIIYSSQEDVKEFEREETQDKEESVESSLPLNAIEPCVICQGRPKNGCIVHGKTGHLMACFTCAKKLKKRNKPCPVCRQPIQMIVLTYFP
Chain of UniProt Q16832 (whole entry, looked up): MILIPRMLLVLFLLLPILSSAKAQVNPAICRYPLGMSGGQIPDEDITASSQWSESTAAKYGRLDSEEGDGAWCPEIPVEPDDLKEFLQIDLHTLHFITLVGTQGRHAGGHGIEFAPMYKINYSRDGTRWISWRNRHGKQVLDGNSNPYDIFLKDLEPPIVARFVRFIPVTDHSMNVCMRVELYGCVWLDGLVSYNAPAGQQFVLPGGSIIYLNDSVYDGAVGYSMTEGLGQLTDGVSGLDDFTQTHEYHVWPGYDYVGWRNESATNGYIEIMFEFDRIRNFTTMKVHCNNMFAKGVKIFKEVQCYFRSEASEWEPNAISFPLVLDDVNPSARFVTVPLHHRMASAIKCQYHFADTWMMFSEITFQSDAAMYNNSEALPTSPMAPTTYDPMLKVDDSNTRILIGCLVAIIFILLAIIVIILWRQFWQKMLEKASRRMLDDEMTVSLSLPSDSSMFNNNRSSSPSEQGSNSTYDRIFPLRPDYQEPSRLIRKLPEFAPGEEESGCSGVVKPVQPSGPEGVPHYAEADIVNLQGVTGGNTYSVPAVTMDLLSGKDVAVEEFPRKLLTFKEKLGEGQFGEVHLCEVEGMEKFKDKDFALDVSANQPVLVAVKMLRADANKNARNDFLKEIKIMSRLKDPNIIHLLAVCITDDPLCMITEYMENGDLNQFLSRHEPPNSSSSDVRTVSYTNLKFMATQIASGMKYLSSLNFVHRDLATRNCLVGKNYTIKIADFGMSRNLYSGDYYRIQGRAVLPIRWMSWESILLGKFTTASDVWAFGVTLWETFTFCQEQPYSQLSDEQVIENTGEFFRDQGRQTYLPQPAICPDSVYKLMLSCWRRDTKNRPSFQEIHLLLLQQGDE
Chain of UniProt P42336 (whole entry, unmodified, looked up): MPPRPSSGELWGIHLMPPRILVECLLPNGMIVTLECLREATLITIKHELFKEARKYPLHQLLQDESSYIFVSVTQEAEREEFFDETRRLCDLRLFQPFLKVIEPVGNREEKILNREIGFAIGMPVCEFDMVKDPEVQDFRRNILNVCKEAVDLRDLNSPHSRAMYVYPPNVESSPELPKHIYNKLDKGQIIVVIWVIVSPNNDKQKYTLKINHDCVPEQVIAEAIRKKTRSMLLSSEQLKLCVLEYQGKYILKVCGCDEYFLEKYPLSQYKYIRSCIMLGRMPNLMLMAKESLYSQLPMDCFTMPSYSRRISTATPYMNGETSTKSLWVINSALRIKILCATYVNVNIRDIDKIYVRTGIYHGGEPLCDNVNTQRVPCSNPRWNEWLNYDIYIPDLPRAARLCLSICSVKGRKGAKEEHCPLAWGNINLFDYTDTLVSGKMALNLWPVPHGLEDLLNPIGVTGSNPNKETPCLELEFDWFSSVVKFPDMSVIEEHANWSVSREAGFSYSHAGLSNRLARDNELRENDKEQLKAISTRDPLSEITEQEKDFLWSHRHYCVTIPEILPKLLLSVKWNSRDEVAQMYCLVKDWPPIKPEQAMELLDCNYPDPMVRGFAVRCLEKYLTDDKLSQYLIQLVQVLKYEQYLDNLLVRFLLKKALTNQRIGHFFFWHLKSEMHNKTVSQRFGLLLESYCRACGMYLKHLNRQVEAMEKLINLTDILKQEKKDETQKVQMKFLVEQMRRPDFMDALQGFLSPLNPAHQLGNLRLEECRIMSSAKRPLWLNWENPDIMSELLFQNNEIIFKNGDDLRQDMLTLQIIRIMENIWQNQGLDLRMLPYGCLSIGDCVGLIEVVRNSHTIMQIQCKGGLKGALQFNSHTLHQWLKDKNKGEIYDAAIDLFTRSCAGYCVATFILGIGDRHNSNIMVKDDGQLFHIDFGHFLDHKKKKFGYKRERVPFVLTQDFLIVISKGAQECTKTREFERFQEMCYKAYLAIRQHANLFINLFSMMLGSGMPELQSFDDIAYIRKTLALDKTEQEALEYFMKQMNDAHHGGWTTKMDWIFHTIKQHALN
Chain of UniProt O75030 (1-296, unmodified, looked up): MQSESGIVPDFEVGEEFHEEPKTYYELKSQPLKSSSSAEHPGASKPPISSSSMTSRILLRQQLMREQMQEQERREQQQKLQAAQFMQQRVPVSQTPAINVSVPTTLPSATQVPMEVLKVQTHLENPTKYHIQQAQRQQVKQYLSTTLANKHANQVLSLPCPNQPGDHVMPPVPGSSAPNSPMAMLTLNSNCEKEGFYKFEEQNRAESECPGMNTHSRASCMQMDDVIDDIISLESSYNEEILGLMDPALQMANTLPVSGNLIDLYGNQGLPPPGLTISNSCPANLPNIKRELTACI
Chain of UniProt Q04609 (whole entry, looked up): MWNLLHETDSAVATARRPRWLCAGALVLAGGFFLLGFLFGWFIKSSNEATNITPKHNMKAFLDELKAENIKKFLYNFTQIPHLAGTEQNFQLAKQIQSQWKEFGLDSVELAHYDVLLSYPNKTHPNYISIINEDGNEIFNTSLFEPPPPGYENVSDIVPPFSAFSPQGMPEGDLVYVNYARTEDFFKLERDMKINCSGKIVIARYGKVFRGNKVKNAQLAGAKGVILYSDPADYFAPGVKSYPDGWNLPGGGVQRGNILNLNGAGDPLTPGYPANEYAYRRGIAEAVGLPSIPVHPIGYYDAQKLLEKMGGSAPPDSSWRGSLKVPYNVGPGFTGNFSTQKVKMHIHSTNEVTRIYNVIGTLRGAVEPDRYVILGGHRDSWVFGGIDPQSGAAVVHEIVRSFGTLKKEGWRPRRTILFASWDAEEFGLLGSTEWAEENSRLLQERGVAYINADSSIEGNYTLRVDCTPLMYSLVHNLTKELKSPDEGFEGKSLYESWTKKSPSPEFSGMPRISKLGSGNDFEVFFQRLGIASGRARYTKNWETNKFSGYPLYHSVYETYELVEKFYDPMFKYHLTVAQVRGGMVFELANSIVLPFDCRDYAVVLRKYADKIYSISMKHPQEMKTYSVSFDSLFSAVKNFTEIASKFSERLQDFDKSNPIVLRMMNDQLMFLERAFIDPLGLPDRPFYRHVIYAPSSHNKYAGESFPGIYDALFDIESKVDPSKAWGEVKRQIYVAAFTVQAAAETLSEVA
Chain of UniProt P30542 (whole entry, looked up): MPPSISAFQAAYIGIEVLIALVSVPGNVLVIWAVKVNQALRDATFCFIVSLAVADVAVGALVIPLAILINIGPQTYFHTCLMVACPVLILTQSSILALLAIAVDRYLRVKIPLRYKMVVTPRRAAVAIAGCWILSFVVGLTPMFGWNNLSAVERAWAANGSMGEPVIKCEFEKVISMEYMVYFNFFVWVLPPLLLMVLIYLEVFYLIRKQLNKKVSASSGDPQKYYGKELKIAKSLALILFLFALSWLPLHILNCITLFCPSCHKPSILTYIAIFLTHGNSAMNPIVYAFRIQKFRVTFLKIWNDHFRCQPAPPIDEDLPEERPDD

Cc1ccc(C(=O)Nc2ccc(CN)cc2)c(O)c1  activity recovered after dilution (human TMPRSS2 and HAT; jump dilution; concentration not given, 15 min preincubation, 1/100 dilution): > 80%
O=C1C[C@@H](c2ccc(O)c(-c3cc([C@@H]4CC(=O)c5c(O)cc(O)cc5O4)ccc3O)c2)Oc2cc(O)cc(O)c21  Vmax (PRXC1A (Armoracia rusticana, UniProt P00433); oxidation, substrate): 1.79 ± 0.2 µmol/min/mg
O=C(NC1CCCC1)N1CCC=C(c2cc3c(Nc4cc5ncsc5cc4F)ncnc3s2)C1  remaining activity (Receptor-interacting serine/threonine-protein kinase 1 (RIPK1, Homo sapiens, UniProt Q13546); enzyme activity; 1 µM; reference: untreated): 96 ± 2%
C=CCn1c(=O)c2ccccc2n2c(SCC(=O)Nc3ccc(NC(C)=O)cc3)nnc12  log cooperativity factor with NMS (Muscarinic acetylcholine receptor M2 (Rattus norvegicus, UniProt P10980); allosteric modulator): 0.56 ± 0.42
O=C([O-])CN1CCN(CC(=O)[O-])CCN(C(CCC(=O)NCCCCCN(CCCC[C@H](NC(=O)N[C@@H](CCC(=O)O)C(=O)O)C(=O)O)C(=O)c2ccc(I)cc2)C(=O)O)CCN(CC(=O)[O-])CC1.[68Ga+3] (some centres unmarked)  SUVmax (Glutamate carboxypeptidase 2 (FOLH1, Homo sapiens, UniProt Q04609); PET/CT; prostate cancer patients, lymph node metastases; 60 min post-injection): 17.1 ± 15.2
Cc1sc2c(c1C)C(c1ccc(Cl)cc1)=N[C@@H](CC(=O)NCCCCCCCCC(=O)N1CCN(C(=O)c3cc(Cc4n[nH]c(=O)c5ccccc45)ccc3F)CC1)c1nnc(C)n1-2  time to equilibrium (BRD4/PARP1 (Homo sapiens, UniProt O60885+P09874); PARP1-BRD4 complex formation; HEK293T; 50 nM): 40 min
COc1cc2c(c(OC)c1)CN(c1cccc(-c3nc4ccc(N5CCN(C)CC5)cc4[nH]3)c1)CC2  binding (Nuclear receptor coactivator 4, residues 383-522 (NCOA4, Homo sapiens, UniProt Q13772); SPR; concentration not given): no binding
CCCCCCCCO[C@@H]1O[C@H](CO)[C@H](O)C[C@H]1O[C@@H]1O[C@@H](C)[C@@H](O)[C@@H](O)[C@@H]1O  kon (ABO G235S/G268A/L266M/R176G; methyl-TROSY NMR titration lineshape analysis; apo enzyme): 7.9e+06 M⁻¹ s⁻¹
COc1cc(C2CC(=O)Nc3nc(N)[nH]c(=O)c32)ccc1O (centres unmarked)  ΔG (uncharacterized protein (Leishmania donovani, UniProt A0A3Q8IA09); competitive ITC; added: aspartate 60 µM): -7.17 kcal/mol
CC(=O)N[C@H](C(=O)N1CCC[C@H]1C(=O)N[C@H](C(=O)N[C@@H](Cc1ccccc1)C(N)=O)[C@@H](C)O)[C@@H](C)OP(=O)(O)O  activity (Breast cancer type 1 susceptibility protein, tandem BRCT domains (BRCA1, Homo sapiens, UniProt P38398); binding, fluorescence polarization; concentration not given): inactive
CC(C)CCC[C@@H](C)[C@H]1CC[C@H]2[C@@H]3CC=C4C[C@@H](OS(=O)(=O)O)CC[C@]4(C)[C@H]3CC[C@]12C  Hill slope (Prothrombin (F2, Homo sapiens, UniProt P00734); enzyme activity, inhibitor; added: unfractionated heparin 0 µM): 1.6 ± 0.3
O=P(O)(O)O[C@@H]1[C@@H](O)[C@H](O)[C@H](O)[C@H](O)[C@H]1OP(=O)(O)O  Hill coefficient (Inositol 1,4,5-trisphosphate-gated calcium channel ITPR1, N-terminal region (Itpr1, Rattus norvegicus, UniProt P29994, del318-332/R504Q); [3H]IP3 competition binding; N-terminal fragment R504Q): 0.9 ± 0.2
CN(C)c1nc(N)c2nc(-n3nccn3)n(C)c2n1  binding free energy (Adenosine receptor A2a (ADORA2A, Homo sapiens, UniProt P29274); radioligand displacement; HEK293 cell membranes; 25 °C, added: [3H]ZM241385): -8.31 ± 0.07 kcal/mol
Cc1ccc(NC(=O)c2c(C)oc3ccc(O)c(CN4CCCCCC4)c23)cc1  composite Z-score (FOXO3 binding site DNA; binding, small molecule microarray; direction not given): 0.16
CN(C)CCCCOc1ccc2cc(CN)ccc2c1  Km (Primary amine oxidase, liver isozyme (Bos taurus, UniProt Q29437); substrate, fluorescence; pH 7.2, 30 °C): 0.078 ± 0.0085 µM
C[C@H](CCC(=O)N[C@@H](CCC(=O)Nc1ccc(O)cc1)C(=O)O)[C@H]1CC[C@H]2[C@@H]3[C@H](O)C[C@@H]4C[C@H](O)CC[C@]4(C)[C@H]3CC[C@]12C  normalized Jmax/Kt (SLC10A2; transport efficiency, substrate, LC-MS/MS; ASBT-MDCK): 0.0286 µM⁻¹
N=C(N)NCCC[C@H](NC(=O)[C@H](Cc1ccccc1)NC(=O)[C@@H](N)CO)C(=O)N[C@@H](CC(N)=O)C(=O)NCC(N)=O  maximal response (Neuropeptide S receptor (Mus musculus, UniProt Q8BZP8); calcium mobilization, agonist; HEK293T; unit not given; reference: maximal assay window): 0.64
CCN1CCN(Cc2ccc(NC(=O)c3ccc(C)c(NC(=O)c4cncc(-c5cnn(C)c5)c4)c3)cc2C(F)(F)F)CC1  phosphorylation (Discoidin domain-containing receptor 2 (DDR2, Homo sapiens, UniProt Q16832); inhibitor, IP and Western blot; 293T expressing wild-type DDR2; concentration not given): inhibited
CC(CCC(=O)NC(CCC(=O)Nc1cccnc1F)C(=O)O)C1CCC2C3C(O)CC4CC(O)CCC4(C)C3CCC12C (centres unmarked)  normalized Jmax/Kt (SLC10A2; transport efficiency, substrate, LC-MS/MS; ASBT-MDCK): 26.7 µM⁻¹
CCCCCCOc1ccc(C(=O)OCC[N+]2(C)CC=CCC2)cc1 (centres unmarked)  cooperativity factor (CHRM5; antagonist, item: inositol phosphates; CHO; M5, added: carbachol): 0.0009 ± 0.0002
CC(C)C[C@H](NC(=O)[C@H](CC(C)C)NC(=O)[C@H](CC(N)=O)NC(=O)[C@H](Cc1c[nH]c2ccccc12)NC(=O)[C@H](Cc1ccc(O)cc1)NC(=O)[C@H](CCC(=O)O)NC(=O)[C@H](C)NC(=O)[C@@H](N)Cc1ccccc1)C(=O)O  fold increase in Kd (Protein Mdm4 (MDM4, Homo sapiens, UniProt O15151); SPR competition binding; reference: PMI): 5180 fold
CSCC[C@H](NC(=O)[C@H](Cc1c[nH]c2ccccc12)NC(=O)[C@@H](NC(=O)[C@@H](NC(=O)[C@@H](NC(=O)[C@H](C)NC(=O)[C@@H](NC(=O)[C@H](C)NC(=O)[C@H](CCCCN)NC(=O)[C@H](CCCCN)NC(=O)[C@@H](NC(=O)[C@H](CC(N)=O)NC(=O)[C@H](CCC(=O)O)NC(=O)[C@@H](N)CCSC)C(C)C)[C@@H](C)O)[C@@H](C)O)[C@@H](C)O)[C@@H](C)O)C(=O)N[C@H](C(=O)N1CCC[C@H]1C(=O)N[C@H](C(=O)N[C@@H](C)C(=O)N[C@@H](C)C(=O)O)[C@@H](C)O)C(C)C  ΔH° (Recombining binding protein suppressor of hairless (Rbpj, Mus musculus, UniProt P31266); isothermal titration calorimetry; pH 6.5, 25 °C): -14.2 ± 0.3 kcal/mol
C=CCCCCCCO[C@@H]1O[C@H](CO)[C@@H](O)[C@H](O[C@@H]2O[C@H](CO)[C@H](O)[C@H](O)[C@H]2O[C@@H]2O[C@@H](C)[C@@H](O)[C@@H](O)[C@@H]2O)[C@H]1NC(C)=O  kon (ABO G235S/G268A/L266M/R176G; methyl-TROSY NMR titration lineshape analysis; apo enzyme): 500000 M⁻¹ s⁻¹
CNC(=O)C(NC(=O)C1CN(C(=O)c2cnn(Cc3ccccc3)c2)CC12CN(C(=O)C1CC1(C)C)C2)C(C)OCCC1CCCCC1 (centres unmarked)  tracer displacement (human cyclin E1 wild type:CDK2-NanoLuc; NanoBRET; HEK293T cell lysate; orthosteric site, added: tracer K-10 0.2 µM): no effect
CCN(CC)C(=O)c1ccc(O)c(OC)c1  contrast (Heat shock protein HSP 90-alpha, N-terminal domain (HSP90AA1, Homo sapiens, UniProt P07900); binding, ligand-observed NMR titration; ligand to protein ratio 366): 41%
CC(C)CNC(=O)[C@H](Cc1ccccc1)NC(=O)[C@H](Cc1c[nH]c2ccccc12)NC(=O)[C@H](CCCNC(=N)N)NC(=O)OC(C)(C)C  activity (E3 ubiquitin-protein ligase Mdm2, with p53 (MDM2, Homo sapiens, UniProt Q00987); MDM2-p53 binding, inhibitor, competitive ELISA; concentration not given): inactive
C[C@H](Cn1cnc2c(N)ncnc21)OCP(=O)(O)O  Kd (T1, DNA aptamer; interferometric free solution assay; 2 h, 22 °C, NaCl 150 mM, single-site fit): 4.88 nM
CCCn1c(=O)c2[nH]c(-c3ccc(OCC(=O)NCCNC(=O)CCCCCNC(=O)CCCCCNS(=O)(=O)c4cccc5c(N(C)C)cccc45)cc3)nc2n(CCC)c1=O  maximal inhibition (Adenosine receptor A1 (ADORA1, Homo sapiens, UniProt P30542); radioligand binding, whole-cell binding; CHO-A1; 2 h, added: [3H]DPCPX; reference: specific binding, 10 µM XAC): 81 ± 0.9%
Cc1cc(C#CC2(O)CCCCC2)cc2c1cc(C(=O)O)n2-c1cccc(Cl)c1  ΔG (Microphthalmia-associated transcription factor, residues 1-296 (Homo sapiens, UniProt O75030); binding, isothermal titration calorimetry; 25 °C): -8.8 ± 0.335 kcal/mol
CCC(=C(c1ccc(Cl)cc1)c1ccc(OCCCN(C)C)cc1)c1ccc(Cl)cc1  fold activation (Estrogen receptor (ESR1, Homo sapiens, UniProt P03372); reporter gene, agonist, yeast estrogen screen; 1 µM; reference: DMSO): 1.21 ± 0.03 fold
O=C(Nc1cccc(C(=O)Nc2ccc(S(=O)(=O)O)c3cc(S(=O)(=O)O)cc(S(=O)(=O)O)c23)c1)Nc1cccc(C(=O)Nc2ccc(S(=O)(=O)O)c3cc(S(=O)(=O)O)cc(S(=O)(=O)O)c23)c1  Hill slope (Neutrophil elastase (ELANE, Homo sapiens, UniProt P08246); enzyme activity, inhibitor, chromogenic substrate hydrolysis; pH 7.4, 37 °C, 100 mM NaCl, added: substrate S-1384): 1.2 ± 0.5
Cc1ccc2ccc3ccc(C)nc3c2n1.Cc1ccc2ccc3ccc(C)nc3c2n1.O.[Cl-].[Cl-].[Cl-].[Yb+3]  number of binding sites (Albumin (ALB, Bos taurus, UniProt P02769); fluorescence quenching titration; concentration not given, 290 K): 1.17
[3H]C([3H])([3H])c1cnccc1CN1C[C@@H](c2cc(F)c(F)c(F)c2)CC1=O  total binding (Synaptic vesicle glycoprotein 2A (SV2A, Homo sapiens, UniProt Q7L0J3); radioligand binding, autoradiography; human, post-mortem insula; 5 nM): 288 fmol/mg
CN1CCC=C(c2nsnc2OCCCN2CCN(CCCCC3CCN(CC(=O)N4c5ccccc5NC(=O)c5ccccc54)CC3)CC2)C1  selectivity ratio (CHRM5; radioligand competition binding; CHO cells; reference: Ki M5 over Ki M2): 430
CCC(=C(c1ccc(O)cc1)c1ccc(OCCN(C)CCOCCOCCOCCOCCOCCOCCOCCN(C)CCOc2ccc(C(=C(CC)c3ccccc3)c3ccc(O)cc3)cc2)cc1)c1ccccc1 (mixture of isomers)  relative binding affinity (Estrogen receptor beta (ESR2, Homo sapiens, UniProt Q92731); radioligand competition binding; concentration not given, Z-Z/Z isomer form, added: [3H]estradiol tracer; reference: estradiol): 20.7 ± 1.6%
Nc1ncc(-c2nc(N3CCOCC3)nc(N3CCN(C(=O)CCC(=O)NCCCCCCCCCNc4cccc5c4C(=O)N(C4CCC(=O)NC4=O)C5=O)CC3)n2)c(C(F)F)n1 (centres unmarked)  protein level recovery (Phosphatidylinositol 4,5-bisphosphate 3-kinase catalytic subunit alpha isoform (PIK3CA, Homo sapiens, UniProt P42336, E545K); degrader, western blot; MCF7; concentration not given, 48 h after washout; reference: untreated): 20 to 30%
CC(=O)N(Cc1ccccc1)[C@@H](C)C(=O)N(C)[C@@H](C)C(=O)N(Cc1c[nH]c2cc(Cl)ccc12)[C@@H](C)C(=O)N(C)[C@@H](C)C(=O)N(CCC(C)(C)C)[C@@H](C)C(=O)N1CCNCC1  kon (E3 ubiquitin-protein ligase Mdm2, N-terminal domain 17-125 (MDM2, Homo sapiens, UniProt Q00987); binding, SPR; PBS with Tween; 10 °C, immobilised peptoid): 6.9e+06 M⁻¹ s⁻¹
CNCC=C(C)C=CC=CC=CC1=C(C)CCCC1(C)C  mature over immature ratio (Rhodopsin (RHO, Homo sapiens, UniProt P08100, P23H); immunoblot; 661W rod opsin P23H; 2.5 µM; reference: mature over immature): ~1.6

A few entries again:
Cc1cc(C#CC2(O)CCCCC2)cc2c1cc(C(=O)O)n2-c1cccc(Cl)c1  ΔG (Microphthalmia-associated transcription factor, residues 1-296 (Homo sapiens, UniProt O75030); binding, isothermal titration calorimetry; 25 °C): -8.8 ± 0.335 kcal/mol
N=C(N)NCCC[C@H](NC(=O)[C@H](Cc1ccccc1)NC(=O)[C@@H](N)CO)C(=O)N[C@@H](CC(N)=O)C(=O)NCC(N)=O  maximal response (Neuropeptide S receptor (Mus musculus, UniProt Q8BZP8); calcium mobilization, agonist; HEK293T; unit not given; reference: maximal assay window): 0.64
CNC(=O)C(NC(=O)C1CN(C(=O)c2cnn(Cc3ccccc3)c2)CC12CN(C(=O)C1CC1(C)C)C2)C(C)OCCC1CCCCC1 (centres unmarked)  tracer displacement (human cyclin E1 wild type:CDK2-NanoLuc; NanoBRET; HEK293T cell lysate; orthosteric site, added: tracer K-10 0.2 µM): no effect
O=C([O-])CN1CCN(CC(=O)[O-])CCN(C(CCC(=O)NCCCCCN(CCCC[C@H](NC(=O)N[C@@H](CCC(=O)O)C(=O)O)C(=O)O)C(=O)c2ccc(I)cc2)C(=O)O)CCN(CC(=O)[O-])CC1.[68Ga+3] (some centres unmarked)  SUVmax (Glutamate carboxypeptidase 2 (FOLH1, Homo sapiens, UniProt Q04609); PET/CT; prostate cancer patients, lymph node metastases; 60 min post-injection): 17.1 ± 15.2
